Assay results from different studies.
Values joined by “and” are separate records of one study, mostly repeats; a detail may differ. Numbers after ± are the reported error.

Structure (SMILES)	assay	test system	conditions	how to read	endpoint	value
OC[C@H]1O[C@@H](c2ccc(Cl)c(Cc3ccc(O[C@H]4CCOC4)cc3)c2)[C@H](O)[C@@H](O)[C@@H]1O		Japanese type 1 diabetes patients, blood	25 mg, day 28	baseline: baseline	change in Chloride	1 mEq/L
O=c1c2ccccc2oc2ccccc12		tricaprin-tricaprylin mixture	60 °C, tricaprin fraction 0.36		solubility	0.0827 mole fraction
COc1ccnc(C(=O)NC(CO)C(=O)O)c1O (racemic)	aerobic dark soil incubation	soil	geometric mean of 4 soils, persistence endpoint		DT50	1.2 days
CC#CC(=O)N[C@H]1CCCN(c2c(F)cc(C(N)=O)c3[nH]c(C)c(C)c23)C1		healthy volunteers	oral, 10 mg single dose, SAD phase I		adverse events	83.3%
CC(C)NCC(O)c1ccc(NS(C)(=O)=O)cc1 (racemic)		male Hartley guinea pigs, anaesthetized	intravenous, 1 mg/kg over 10 min, after infusion		heart rate	176 ± 0.4 beats/min
Cc1ccc([C@@H]2O[C@H](CO)[C@@H](O)[C@H](O)[C@H]2O)cc1Cc1ccc(-c2ccc(F)cc2)s1		Japanese type 2 diabetes patients	25 mg, day 1, 24 h urine collection	baseline: baseline	urinary chloride excretion change	23.7 mEq
Cc1cc(C)c(CNC(=O)c2cc(Cl)c3c(c2C)O[C@@](C)([C@H]2CC[C@H](N(C)C)CC2)O3)c(=O)[nH]1		relapsed/refractory NHL patients	oral, 200 mg once daily, onset after cycle 1 day 1		adverse event Dizziness	16.7%
CCCCOC(=O)N1CCN(C(=O)[C@H](CP(=O)(O)O)NC(=O)c2cc(N3CC[C@H](OC)C3)nc(-c3ccccc3)n2)CC1		human	subcutaneous, 8 mg, 1 h post-dose	baseline: baseline	change in QTcB interval	-3.1 ± 21.6 ms
CNc1ccc(-c2nc3ccc(O)cc3s2)cc1 [carbon-11 labelled]	ex vivo biodistribution	normal B6SJL mice, adipose	intravenous, 30 min		uptake	0.406 ± 0.061 SUV
Cl.[2H]C([2H])([2H])CC(=O)c1cnc(NC(=O)C2CC2)cc1Nc1cccc(-c2ncn(C([2H])([2H])[2H])n2)c1OC		human, non-fasted	oral, 30 mg twice daily, day 14, multiple dose, tablet, geometric mean		half-life	7.6 h
COc1cc(C2=CCCCc3c2ccc(OC)c3OC(C)c2cnc([N+](=O)[O-])n2C)cc(OC)c1OC (stereo not drawn)	non-enzymatic, no POR	phosphate buffer	24 h, pH 7.4		parent drug release	0%
Cc1ccc(C(=O)N(CCCN)C(c2nc3snc(C)c3c(=O)n2Cc2ccccc2)C(C)C)cc1 (stereo not drawn)		human patients	intravenous, 16 mg/day		grade ≥3 fatigue patients	0%
CCOc1c([C@H](C)n2nc(C)c3c(N)ncnc32)cc(Cl)c(F)c1[C@@H]1CNC(=O)C1		human, indolent lymphoma, plasma	oral, 20 mg, day 15, geometric mean		AUC(0-tau)	12.2 µM·h
C[C@@H](NC(=O)N1C(=O)[C@H](Cc2ccnc(N)c2)[C@H]1C(=O)O)C1CCCCC1	UPLC-MS/MS	healthy adult Chinese volunteers, plasma	continuous intravenous infusion, 1.0 mg/kg/h, day 1 of 5-day infusion, median		time to steady state	1.5 h
O=C1c2ccncc2C(=O)c2c1[nH]c1ccccc21		Sprague-Dawley rat, male, lung	intravenous, 1 mg/kg, 24 h		tissue concentration	0.013 ± 0.004 nmol/mg
CNC(=O)c1ccc(-c2cnc3ncc(Cc4ccc5ncccc5c4)n3n2)cc1F		Japanese patients	oral, 400 mg, grade 3/4		Lymphopenia dose reduction/interruption	1%
COc1ccc([C@@H](O)c2cc(-c3ncnc4cc(N5CCOCC5)ccc34)c(F)cc2Cl)nn1		locally advanced rectal cancer patients	100 mg, together with: capecitabine and radiotherapy		drug-related blood lymphatic AE	33%
CCN1CCN(Cc2ccc(Nc3ncc(F)c(-c4cc(F)c5nc6n(c5c4)[C@H](C)CCC6)n3)nc2)CC1		human, plasma	50 mg single dose, median		Tmax	3.97 h
C[C@@H](Nc1cc(F)cc(F)c1)c1cc(C(=O)N(C)C)cc2c(=O)cc(N3CCOCC3)oc12	refers to: macular rash	patients with advanced solid tumours	oral, dose not given, dose expansion phase I		treatment-related serious adverse events	0%

Structure (SMILES)	assay	test system	conditions	how to read	endpoint	value
CS(=O)(=O)c1ccc([C@@H](O)[C@@H](CF)NC(=O)C(Cl)Cl)cc1		chicken (Arbor Acres), plasma	oral, 20 mg/kg, together with: saline pretreatment		MRT(0-inf)	3.35 ± 0.48 h
NC[C@@]1(CC(=O)O)[C@@H]2CC[C@H]3C[C@@H]2[C@@H]1C3		human, moderate renal impairment, plasma	dose not given	baseline: normal renal function	unbound AUC(0-t) increase	122%
CO[C@H]1/C=C/O[C@@]2(C)Oc3c(C)c(O)c4c(O)c(c(/C=N/N5CCN(C)CC5)c(O)c4c3C2=O)NC(=O)/C(C)=C\C=C\[C@H](C)[C@H](O)[C@@H](C)[C@@H](O)[C@@H](C)[C@H](OC(C)=O)[C@@H]1C		healthy human volunteers	oral, 600 mg, itraconazole cohort, together with: gepotidacin 1500 mg		incidence of burning sensation	6%
CNCc1ccc(-c2[nH]c3cc(F)cc4c3c2CCNC4=O)cc1		patients	oral, 240 mg twice daily, all grades		abdominal pain incidence	0%
CCO[C@H]1CCN(Cc2c(OC)cc(C)c3[nH]ccc23)[C@H](c2ccc(C(=O)O)cc2)C1	refers to: abdominal pain	PNH patients with active haemolysis	oral, 200 mg, extension phase		adverse event incidence	0%
C[C@@H]1CN(CC(=O)N2CC(C)(C)c3nc(CO)c(Cc4ccc(F)cc4)cc32)[C@@H](CN2CCOC[C@H]2C)CN1		male cynomolgus monkey	oral, 30 mg/kg		oral bioavailability	28 ± 8.6%
C[C@H](CS)C(=O)N1CCC[C@H]1C(=O)O		male Hartley guinea pigs, anaesthetized	intravenous, 3 mg/kg group, baseline before infusion		heart rate	227 ± 0.7 beats/min
Cc1cc(-c2nccc3c2ccn3CC(=O)Nc2ccc(-c3cnccn3)cn2)ccn1		human	5 mg once daily, multiple ascending dose		subjects with Erythema adverse event	0%
C[C@H]1CN(C(=O)CC#N)[C@]12CCN(c1ncnc3[nH]ccc13)C2		healthy human	oral, 12 mg single		subjects with Arthralgia	0%
CCCn1cc(C)c2c(=O)[nH]c(-c3cc(S(=O)(=O)N4CCN(CC)CC4)ccc3OCC)nc21		human	concentration not given		pharmacodynamic-related TEAEs	27.8%
CN(CCC(=O)O)C(=O)c1ccc2c(c1)CC[C@@H]1[C@@H]2CC[C@]2(C)C(c3cncc(F)c3)=CC[C@@H]12		premenopausal women with endometriosis pain, serum	60 mg twice daily, end of treatment, completers, median	baseline: baseline	indirect bilirubin change	0.24 mg/dL
O=C(O)c1ccc(O)c(O)c1O		human CSF	concentration not given, mean		CSF concentration	not detected
CC(=O)Oc1ccccc1C(=O)O		male Hartley guinea pigs, anaesthetized	intravenous, 3 mg/kg group, baseline before infusion		heart rate	227 ± 0.6 beats/min
[18F]c1ccc(-c2ccc3c(c2)[nH]c2ccncc23)cn1	ex vivo biodistribution	normal B6SJL mice, caudate nucleus	intravenous, 30 min		uptake	0.483 ± 0.148 SUV
C[C@@H](Oc1ccc(S(C)(=O)=O)cc1C(=O)N1C[C@@H]2C[C@]2(c2cc(C(F)(F)F)on2)C1)C(F)(F)F		young humans, plasma	oral, 75 mg once daily, single dose, geometric mean		Vz/F	426 L
Cc1noc(C)c1Cn1cc(N2C(=O)CN(Cc3cccc(O)c3)C2=O)cn1		Sprague-Dawley rat liver microsomes	10 µM, 10 min, pH 7.4		parent remaining	95%
Cc1cc(Nc2ncnc3ccc(NC4=NC(C)(CO)CO4)cc23)ccc1Oc1ccn2ncnc2c1 (stereo not drawn)		human, plasma	oral, 300 mg tucatinib single dose, day 1, tucatinib alone		AUC(0-t) (arithmetic mean)	463 ng·h/mL
CC(Oc1ccc(O)cc1)C(=O)O (stereo not drawn)		human CSF	concentration not given, mean		CSF concentration	not detected
Nc1ncnc2c1ncn2[C@H]1C[C@@H]2OP(=O)(O)OC[C@H]3O[C@@H](n4cnc5c(N)ncnc54)C[C@@H]3OP(=O)(O)OC[C@H]2O1		non-tumor-bearing mice, serum	intravenous, 1 mg/kg, toxicity study		ALT	66 ± 5.03 U/L

Structure (SMILES)	assay	test system	conditions	how to read	endpoint	value
CN1CC[C@@H](NC(=O)Nc2ccc(C#N)cc2)C[C@@H]1c1nc2ccccc2[nH]1		human cancer patients, plasma	oral, dose not given, population PK base model		peripheral volume Vp/F	239 L
O=C(O)c1ccc(O)c(O)c1		human CSF	concentration not given, mean		CSF concentration	not detected
NC(N)=NCCC[C@@H](N)C(=O)N[C@@H](CCCN=C(N)N)C(=O)N1CCC[C@H]1C(=O)N1C[C@H](O)C[C@H]1C(=O)NCC(=O)N[C@@H](Cc1cccs1)C(=O)N[C@@H](CO)C(=O)N1Cc2ccccc2C[C@@H]1C(=O)N1[C@H](C(=O)N[C@@H](CCCN=C(N)N)C(=O)O)C[C@@H]2CCCC[C@@H]21	popPK full model estimate	human	subcutaneous		peripheral clearance (Q/F)	0.396 L/h
COc1cc(CCC(=O)O)ccc1OS(=O)(=O)O		human CSF	concentration not given, mean		CSF concentration	not detected
CCn1cc(C(=O)N2CCOCC2)c(=O)c2cc(NC3Cc4ccccc4C3)cnc21		human, fasted	oral suspension, 5 mg single dose, arithmetic mean		Cmax	45 ng/mL
CN(CCC#N)C1CCN(C(=O)Cn2cc(NC(=O)c3cnn4cccnc34)c(-c3cc(Cl)ccc3OC(F)F)n2)CC1		human, single ascending dose	0.15 mg, day 4	baseline: baseline	reticulocyte count change	6 10⁹/L
COc1ccc2c(=O)n(C)c(-c3ccccc3)nc2c1		Sprague-Dawley rat, male, skeletal muscle/plasma	oral, 30 mg/kg, 2 h	baseline: skeletal muscle over plasma	tissue/plasma ratio	0.44
O=C(NCc1ccc(CNC(=O)c2cc(=O)c(O)cn2O)cc1)c1csc2nc[nH]c(=O)c12	haemolysis	human red blood cells	1 h, 37 °C		EC50	> 100 µM
CC/C(=C(\c1ccccc1)c1ccc(OCCN(C)C)cc1)c1ccccc1		male Hartley guinea pigs, anaesthetized	intravenous, 30 mg/kg over 10 min, after infusion		heart rate	192 ± 0.9 beats/min
CN(C(=O)n1cnc(-c2cccnc2)c1)[C@H]1CC[C@H](O)CC1		Wistar rat, midbrain	oral, 10 mg/kg/day of BIA 10-2474, 48 h, repeated 5 days		concentration	17.2 ± 0.9 ng/g
O=C(O)CSc1nnc(Br)n1-c1ccc(C2CC2)c2ccccc12		KM mouse, chronic hyperuricaemia model	dose not given, day 2		body weight	21.5 g and 28 g and 28.2 g and 26.7 g and 24.9 g and 25.3 g
COc1ccc2c(c1)CN(C(=O)CCN1CCC(Cc3ccccc3)CC1)CC[S@@+]2[O-]	telemetry	conscious dog	intravenous, 2 mg/kg, 0.5 h		heart rate	110 ± 7 beats/min
N#Cc1ccc2c(c1)[C@H]1CCCN(C(=O)c3ccc4[nH]cnc4c3)[C@H]1C2		human, male	40 mg, end of trial		androstenedione level	4.3 nmol/L
Cc1c(C(=O)Nc2ccc(N3C[C@@H](C)O[C@@H](C)C3)nc2)cccc1-c1ccc(OC(F)(F)F)cc1	PK model	mouse	oral, 40 mg/kg/day		absorption rate constant	0.112 h⁻¹
Cc1cc(-c2nnc(N)nc2-c2ccc(F)cc2)cc(Cl)n1	refers to: Dizziness	human phase Ia/Ib colorectal cancer, immunotherapy-naive	oral, dose not given		patients with treatment-related adverse events	24%
CCC(=O)N(CCC(c1ccc2c(c1)OCO2)c1ccccc1OC)Cc1ccccc1 (stereo not drawn)		female athymic nude mouse, blood	i.p., 60 mg/kg twice daily, 14 days, group mean		NEUT	25.4%
CCCCCCOC(=O)NC(=N)c1ccc(NCc2nc3cc(C(=O)N(CCC(=O)OCC)c4ccccn4)ccc3n2C)cc1		human	oral, 75 mg, compound alone		participants with TEAE hot flush	4.2%
O=C(COc1ccc(Cl)cc1)NC12CC(c3nnc([C@H]4C[C@@H](OC(F)(F)F)C4)o3)(C1)C2		humans			post lumbar puncture syndrome	15.8%
CCN1/C(=C/C(C)=O)Sc2ccc(F)cc21		cynomolgus monkey	oral, 100 mg/kg, 1 h post-dose	baseline: pre-dose	mean blood pressure change	96.6 ± 2.5%
